# Published values of several laboratories.
# Compare with care: the assays were run in different laboratories. Numbers after ± are the reported error.
# UniProt P16050, sequence (whole entry, looked up): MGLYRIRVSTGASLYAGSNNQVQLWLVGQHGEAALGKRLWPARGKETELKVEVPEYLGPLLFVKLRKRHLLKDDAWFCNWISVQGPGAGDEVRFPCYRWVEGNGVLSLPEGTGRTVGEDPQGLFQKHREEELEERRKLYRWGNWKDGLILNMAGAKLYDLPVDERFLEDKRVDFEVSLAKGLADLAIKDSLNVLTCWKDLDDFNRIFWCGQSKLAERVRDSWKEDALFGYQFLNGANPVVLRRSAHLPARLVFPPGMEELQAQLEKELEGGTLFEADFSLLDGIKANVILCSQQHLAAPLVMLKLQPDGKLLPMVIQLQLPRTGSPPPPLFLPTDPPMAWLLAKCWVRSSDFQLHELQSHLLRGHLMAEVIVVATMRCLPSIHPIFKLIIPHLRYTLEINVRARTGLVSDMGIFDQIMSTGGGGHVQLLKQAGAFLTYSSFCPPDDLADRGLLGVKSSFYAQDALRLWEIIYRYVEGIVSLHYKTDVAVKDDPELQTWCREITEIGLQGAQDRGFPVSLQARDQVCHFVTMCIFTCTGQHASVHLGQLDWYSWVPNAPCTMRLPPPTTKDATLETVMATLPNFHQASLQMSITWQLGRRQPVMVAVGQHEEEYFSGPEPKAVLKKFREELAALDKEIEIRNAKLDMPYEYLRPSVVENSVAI
# UniProt Q15303, sequence (whole entry, looked up): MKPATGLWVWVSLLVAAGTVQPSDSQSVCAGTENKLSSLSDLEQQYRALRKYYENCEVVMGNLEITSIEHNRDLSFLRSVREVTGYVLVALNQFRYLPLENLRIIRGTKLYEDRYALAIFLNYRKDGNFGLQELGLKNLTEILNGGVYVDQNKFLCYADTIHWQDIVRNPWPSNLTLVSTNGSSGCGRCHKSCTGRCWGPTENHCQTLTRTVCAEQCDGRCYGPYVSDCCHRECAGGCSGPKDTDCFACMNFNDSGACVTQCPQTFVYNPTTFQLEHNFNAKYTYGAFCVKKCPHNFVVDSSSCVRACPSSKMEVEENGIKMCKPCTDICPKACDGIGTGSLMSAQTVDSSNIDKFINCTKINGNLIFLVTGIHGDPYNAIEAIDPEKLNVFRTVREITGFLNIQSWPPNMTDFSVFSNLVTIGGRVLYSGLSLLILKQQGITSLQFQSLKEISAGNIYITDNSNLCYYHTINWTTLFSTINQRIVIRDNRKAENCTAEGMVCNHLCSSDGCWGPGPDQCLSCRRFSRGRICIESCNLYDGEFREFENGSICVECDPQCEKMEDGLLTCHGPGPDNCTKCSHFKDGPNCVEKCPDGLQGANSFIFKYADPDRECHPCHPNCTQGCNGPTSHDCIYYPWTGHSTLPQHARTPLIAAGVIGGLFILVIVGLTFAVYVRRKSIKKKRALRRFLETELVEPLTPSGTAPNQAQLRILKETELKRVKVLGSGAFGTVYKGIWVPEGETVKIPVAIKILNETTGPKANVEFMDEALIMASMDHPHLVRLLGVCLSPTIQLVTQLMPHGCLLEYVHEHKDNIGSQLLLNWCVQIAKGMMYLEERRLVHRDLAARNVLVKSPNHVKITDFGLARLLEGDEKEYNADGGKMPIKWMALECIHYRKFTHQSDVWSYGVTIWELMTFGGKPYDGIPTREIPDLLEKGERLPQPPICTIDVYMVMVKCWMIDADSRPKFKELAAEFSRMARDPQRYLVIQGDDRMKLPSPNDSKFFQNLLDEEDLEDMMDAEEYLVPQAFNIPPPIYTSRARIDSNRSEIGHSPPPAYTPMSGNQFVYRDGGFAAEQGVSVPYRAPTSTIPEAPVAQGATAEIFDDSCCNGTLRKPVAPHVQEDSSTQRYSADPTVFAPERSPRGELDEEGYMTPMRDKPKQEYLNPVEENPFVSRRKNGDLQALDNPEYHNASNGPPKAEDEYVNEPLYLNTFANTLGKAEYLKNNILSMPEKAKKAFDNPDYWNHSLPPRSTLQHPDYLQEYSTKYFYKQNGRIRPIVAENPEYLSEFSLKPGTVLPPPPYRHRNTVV
SMILES,target or system,assay,test system,conditions,how to read,quantity,result
CN1CC[C@@H](c2c(O)cc(O)c3c(=O)cc(-c4ccc(C(F)(F)F)cc4Cl)oc23)[C@@H]1CO,,item: Leukopenia,relapsed or refractory haematological malignancies,"oral, dose not given, grade 3 to 4, all arms",,patients with adverse event,5%
CO[C@H]1C[C@@H]2CC[C@@H](C)[C@@](O)(O2)C(=O)C(=O)N2CCCC[C@H]2C(=O)O[C@H]([C@H](C)C[C@@H]2CC[C@@H](OC(=O)NCCOCCOCCOCCOCCOCCOCCOCCOCCC(=O)N3CCc4cc(Cn5nc(-c6ccc7oc(N)nc7c6)c6c(N)ncnc65)ccc4C3)[C@H](OC)C2)C[C@@H](O)[C@H](C)/C=C(\C)[C@@H](O)[C@@H](OC)C(=O)[C@H](C)C[C@H](C)/C=C/C=C/C=C/1C,,phase 1 dose escalation,advanced solid tumour patients,"intravenous, 6 mg weekly, grade ≥3",,any SAE incidence,41.7%
O=C(Nc1ccccc1)C1CCN(C(=O)Oc2cccnc2)CC1,,adverse event reporting,healthy women,"oral, 60 mg, 7 days",,subjects with pain in extremity,7.1%
O=C(c1ccc(F)c(F)c1Nc1ccc(I)cc1F)N1CC(O)([C@@H]2CCCCN2)C1,,,patients aged 6 to sample A years,"oral, dose not given",,adverse events of special interest,39%
COc1cc(Nc2ncc(F)c(Nc3ccc4c(n3)NC(=O)C(C)(C)O4)n2)cc(OC)c1OC,"Polyunsaturated fatty acid lipoxygenase ALOX15 (ALOX15, Homo sapiens, UniProt P16050)",,,,,IC50,> 10 µM
C[C@H]1CN(c2n[nH]c3nc(N[C@H]4CC[C@H](NS(=O)(=O)CCC(F)(F)F)CC4)ncc23)CCO1,"Receptor tyrosine-protein kinase erbB-4 (ERBB4, Homo sapiens, UniProt Q15303)","inhibitor, Kinobeads competition profiling",,0.8 µM,relative to: vehicle,relative abundance,0.96
COc1ccc(CCC2CCCC(CCc3ccc(OC)cc3)N2C[C@@H](O)CO)cc1.Cl (stereo in doubt),,,rabbit Purkinje fibres,"0.3 µM, cycle length 0.5 s",relative to: baseline,action potential amplitude change,-1.6 ± 5.8 mV
COc1cc2c(Oc3ccc4[nH]c(C)cc4c3F)ccnc2cc1OCC1(N)CC1,,,paediatric refractory sarcoma patients,8 mg,,sinus bradycardia incidence,0%
O=S(=O)(Nc1ccccc1)c1ccc(NC(=S)Nc2ccccc2)cc1,,item: TRIG,"female mouse, blood","oral, 20 mg/kg daily, 14 days",,blood chemistry level,205 mg/dL
CC[C@H](C)[C@H](NC(=O)[C@H](Cc1ccccc1)NC(=O)[C@H](CCC(=O)O)NC(=O)[C@H](CCCNC(=N)N)NC(=O)[C@H](C)NC(=O)[C@H](C)NC(=O)[C@H](CCC(N)=O)NC(=O)[C@H](CCC(=O)O)NC(=O)[C@H](CCC(=O)O)NC(=O)[C@H](CC(C)C)NC(=O)[C@H](Cc1ccc(O)cc1)NC(=O)[C@H](CO)NC(=O)[C@H](CO)NC(=O)[C@@H](NC(=O)[C@H](CC(=O)O)NC(=O)[C@H](CO)NC(=O)[C@@H](NC(=O)[C@H](Cc1ccccc1)NC(=O)[C@@H](NC(=O)CNC(=O)[C@H](CCC(=O)O)NC(=O)[C@H](C)NC(=O)CCc1c[nH]cn1)[C@@H](C)O)[C@@H](C)O)C(C)C)C(=O)N[C@@H](C)C(=O)N[C@@H](Cc1c[nH]c2ccccc12)C(=O)N[C@@H](CC(C)C)C(=O)N[C@H](C(=O)N[C@@H](CCCNC(=N)N)C(=O)NCC(=O)N[C@@H](CCCNC(=N)N)C(=O)N[C@@H](CCCCNC(=O)COCCOCCNC(=O)COCCOCCNC(=O)CC[C@H](NC(=O)CCCCCCCCCCCCCCCCC(=O)O)C(=O)O)C(=O)NCC(=O)NCC(=O)N[C@@H](CO)C(=O)N[C@@H](CCCCNc1c(NCCCCCN(O)C(=O)CCC(=O)NCCCCCN(O)C(=O)CCC(=O)NCCCCCN(O)C(C)=O)c(=O)c1=O)C(=O)O)C(C)C [zirconium-89 labelled],,,"rat, pancreas","iv, 3 nmol/kg, 72 h, ex vivo",,tissue uptake,0.32 %ID/g
CC[C@H](C)[C@@H]1NC(=O)[C@@H]2CCCN2C(=O)[C@H](CC(C)C)NC(=O)[C@H](CC(C)C)NC(=O)CNC(=O)[C@@H](NC(=O)[C@@H](NC(=O)[C@H](CC(=O)O)NC(=O)CNC(=O)[C@@H](NC(=O)[C@H](C)NC(=O)CNC(=O)[C@H](CCCCN)NC(=O)[C@H](CC(C)C)NC(=O)[C@H](CC(C)C)NC(=O)[C@H](CCCCN)NC(=O)CNC(=O)[C@@H](NC(=O)[C@@H](N)CC(C)C)C(C)C)C(C)C)C(C)C)CSSC[C@@H](C(=O)O)NC1=O,,"RNA-seq, item: Ebi3","mouse, traumatic brain injury model, frontal cortex and hippocampus",dose not given,relative to: TBI alone,log2 fold change,-2.26
CC[C@H](C)[C@H](NC(=O)[C@H](Cc1ccccc1)NC(=O)[C@H](CCC(=O)O)NC(=O)[C@H](CCCNC(=N)N)NC(=O)[C@H](C)NC(=O)[C@H](C)NC(=O)[C@H](CCC(N)=O)NC(=O)[C@H](CCC(=O)O)NC(=O)[C@H](CCC(=O)O)NC(=O)[C@H](CC(C)C)NC(=O)[C@H](Cc1ccc(O)cc1)NC(=O)[C@H](CO)NC(=O)[C@H](CO)NC(=O)[C@@H](NC(=O)[C@H](CC(=O)O)NC(=O)[C@H](CO)NC(=O)[C@@H](NC(=O)[C@H](Cc1ccccc1)NC(=O)[C@@H](NC(=O)CNC(=O)[C@H](CCC(=O)O)NC(=O)[C@H](C)NC(=O)CCc1cnc[nH]1)[C@@H](C)O)[C@@H](C)O)C(C)C)C(=O)N[C@@H](C)C(=O)N[C@@H](Cc1c[nH]c2ccccc12)C(=O)N[C@@H](CC(C)C)C(=O)N[C@H](C(=O)N[C@@H](CCCNC(=N)N)C(=O)NCC(=O)N[C@@H](CCCNC(=N)N)C(=O)N[C@@H](CCCCNC(=O)COCCOCCNC(=O)COCCOCCNC(=O)CC[C@H](NC(=O)CCCCCCCCCCCCCCCCC(=O)O)C(=O)O)C(=O)NCC(=O)NCC(=O)N[C@@H](CO)C(=O)N[C@@H](CCCCNC(=O)[C@H](CCCCNC(=O)[C@H](CCCCNc1c(NCCCCCN(O)C(=O)CCC(=O)NCCCCCN(O)C(=O)CCC(=O)NCCCCCN(O)C(C)=O)c(=O)c1=O)Nc1c(NCCCCCN(O)C(=O)CCC(=O)NCCCCCN(O)C(=O)CCC(=O)NCCCCCN(O)C(C)=O)c(=O)c1=O)NC(=O)[C@H](CCCCNc1c(NCCCCCN(O)C(=O)CCC(=O)NCCCCCN(O)C(=O)CCC(=O)NCCCCCN(O)C(C)=O)c(=O)c1=O)Nc1c(NCCCCCN(O)C(=O)CCC(=O)NCCCCCN(O)C(=O)CCC(=O)NCCCCCN(O)C(C)=O)c(=O)c1=O)C(=O)O)C(C)C [zirconium-89 labelled],,ex vivo gamma counting,"male Sprague-Dawley rats, muscle","intravenous, 1 nmol, 24 h",,tissue uptake,0.114 %ID/g
